{"data": "Assay results from different studies", "note": "A part holds a random share of what one study measured. Values joined by “and” are separate records of one study, mostly repeats; a detail may differ.", "chain of UniProt P17948 (whole entry, looked up)": "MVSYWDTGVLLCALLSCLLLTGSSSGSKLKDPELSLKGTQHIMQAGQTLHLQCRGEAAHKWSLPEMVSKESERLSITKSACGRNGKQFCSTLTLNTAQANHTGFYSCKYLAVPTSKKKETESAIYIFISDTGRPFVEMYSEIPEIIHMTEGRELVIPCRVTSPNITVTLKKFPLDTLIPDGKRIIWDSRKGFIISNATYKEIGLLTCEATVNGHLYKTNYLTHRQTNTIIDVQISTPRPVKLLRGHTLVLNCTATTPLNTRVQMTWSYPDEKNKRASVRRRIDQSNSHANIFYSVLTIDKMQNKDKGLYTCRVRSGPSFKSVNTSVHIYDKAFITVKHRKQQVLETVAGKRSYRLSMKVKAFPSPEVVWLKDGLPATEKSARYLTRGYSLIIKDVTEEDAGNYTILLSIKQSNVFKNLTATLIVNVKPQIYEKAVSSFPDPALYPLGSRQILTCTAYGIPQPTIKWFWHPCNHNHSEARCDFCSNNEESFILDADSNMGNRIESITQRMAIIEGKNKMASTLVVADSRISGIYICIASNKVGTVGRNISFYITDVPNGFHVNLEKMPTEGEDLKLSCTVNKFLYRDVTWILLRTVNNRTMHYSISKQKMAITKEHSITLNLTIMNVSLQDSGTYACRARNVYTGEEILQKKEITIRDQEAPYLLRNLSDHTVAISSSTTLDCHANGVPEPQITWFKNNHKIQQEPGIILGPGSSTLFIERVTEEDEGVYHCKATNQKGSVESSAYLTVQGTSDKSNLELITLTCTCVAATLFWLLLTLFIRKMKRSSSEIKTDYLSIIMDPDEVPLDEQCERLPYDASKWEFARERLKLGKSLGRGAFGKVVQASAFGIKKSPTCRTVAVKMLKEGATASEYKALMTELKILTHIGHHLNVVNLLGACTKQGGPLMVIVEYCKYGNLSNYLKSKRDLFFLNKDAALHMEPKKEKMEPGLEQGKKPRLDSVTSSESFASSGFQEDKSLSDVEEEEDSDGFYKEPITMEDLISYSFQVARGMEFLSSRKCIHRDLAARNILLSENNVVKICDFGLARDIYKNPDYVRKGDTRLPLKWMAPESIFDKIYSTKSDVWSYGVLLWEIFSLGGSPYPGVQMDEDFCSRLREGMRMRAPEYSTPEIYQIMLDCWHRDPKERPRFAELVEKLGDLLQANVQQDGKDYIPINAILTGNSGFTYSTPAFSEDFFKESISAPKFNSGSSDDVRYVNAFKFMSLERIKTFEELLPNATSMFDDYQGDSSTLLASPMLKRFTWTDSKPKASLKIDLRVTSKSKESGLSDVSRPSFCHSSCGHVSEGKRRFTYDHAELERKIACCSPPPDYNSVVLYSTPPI", "chain of UniProt P51957 (whole entry, looked up)": "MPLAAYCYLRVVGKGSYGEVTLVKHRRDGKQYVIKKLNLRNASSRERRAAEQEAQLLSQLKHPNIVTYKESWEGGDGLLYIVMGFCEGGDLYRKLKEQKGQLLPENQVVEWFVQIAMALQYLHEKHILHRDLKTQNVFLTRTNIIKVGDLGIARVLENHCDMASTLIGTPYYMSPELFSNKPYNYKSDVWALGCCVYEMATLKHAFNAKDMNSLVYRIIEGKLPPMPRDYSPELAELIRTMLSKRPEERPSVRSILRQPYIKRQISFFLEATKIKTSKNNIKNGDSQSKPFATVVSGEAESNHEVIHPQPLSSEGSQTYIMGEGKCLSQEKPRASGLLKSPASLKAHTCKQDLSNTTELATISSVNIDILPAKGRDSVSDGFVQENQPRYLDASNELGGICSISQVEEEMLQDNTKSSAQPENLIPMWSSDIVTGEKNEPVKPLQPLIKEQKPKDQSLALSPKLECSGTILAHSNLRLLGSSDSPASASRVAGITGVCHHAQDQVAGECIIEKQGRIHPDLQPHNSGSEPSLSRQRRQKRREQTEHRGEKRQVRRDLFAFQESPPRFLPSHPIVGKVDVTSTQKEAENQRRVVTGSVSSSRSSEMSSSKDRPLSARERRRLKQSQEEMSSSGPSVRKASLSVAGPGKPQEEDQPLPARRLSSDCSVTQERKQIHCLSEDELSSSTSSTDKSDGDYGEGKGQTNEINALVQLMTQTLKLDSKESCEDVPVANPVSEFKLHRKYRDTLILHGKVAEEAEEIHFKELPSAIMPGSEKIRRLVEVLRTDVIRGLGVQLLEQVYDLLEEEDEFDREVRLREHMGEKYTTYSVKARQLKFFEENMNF", "chain of UniProt O14976 (whole entry, looked up)": "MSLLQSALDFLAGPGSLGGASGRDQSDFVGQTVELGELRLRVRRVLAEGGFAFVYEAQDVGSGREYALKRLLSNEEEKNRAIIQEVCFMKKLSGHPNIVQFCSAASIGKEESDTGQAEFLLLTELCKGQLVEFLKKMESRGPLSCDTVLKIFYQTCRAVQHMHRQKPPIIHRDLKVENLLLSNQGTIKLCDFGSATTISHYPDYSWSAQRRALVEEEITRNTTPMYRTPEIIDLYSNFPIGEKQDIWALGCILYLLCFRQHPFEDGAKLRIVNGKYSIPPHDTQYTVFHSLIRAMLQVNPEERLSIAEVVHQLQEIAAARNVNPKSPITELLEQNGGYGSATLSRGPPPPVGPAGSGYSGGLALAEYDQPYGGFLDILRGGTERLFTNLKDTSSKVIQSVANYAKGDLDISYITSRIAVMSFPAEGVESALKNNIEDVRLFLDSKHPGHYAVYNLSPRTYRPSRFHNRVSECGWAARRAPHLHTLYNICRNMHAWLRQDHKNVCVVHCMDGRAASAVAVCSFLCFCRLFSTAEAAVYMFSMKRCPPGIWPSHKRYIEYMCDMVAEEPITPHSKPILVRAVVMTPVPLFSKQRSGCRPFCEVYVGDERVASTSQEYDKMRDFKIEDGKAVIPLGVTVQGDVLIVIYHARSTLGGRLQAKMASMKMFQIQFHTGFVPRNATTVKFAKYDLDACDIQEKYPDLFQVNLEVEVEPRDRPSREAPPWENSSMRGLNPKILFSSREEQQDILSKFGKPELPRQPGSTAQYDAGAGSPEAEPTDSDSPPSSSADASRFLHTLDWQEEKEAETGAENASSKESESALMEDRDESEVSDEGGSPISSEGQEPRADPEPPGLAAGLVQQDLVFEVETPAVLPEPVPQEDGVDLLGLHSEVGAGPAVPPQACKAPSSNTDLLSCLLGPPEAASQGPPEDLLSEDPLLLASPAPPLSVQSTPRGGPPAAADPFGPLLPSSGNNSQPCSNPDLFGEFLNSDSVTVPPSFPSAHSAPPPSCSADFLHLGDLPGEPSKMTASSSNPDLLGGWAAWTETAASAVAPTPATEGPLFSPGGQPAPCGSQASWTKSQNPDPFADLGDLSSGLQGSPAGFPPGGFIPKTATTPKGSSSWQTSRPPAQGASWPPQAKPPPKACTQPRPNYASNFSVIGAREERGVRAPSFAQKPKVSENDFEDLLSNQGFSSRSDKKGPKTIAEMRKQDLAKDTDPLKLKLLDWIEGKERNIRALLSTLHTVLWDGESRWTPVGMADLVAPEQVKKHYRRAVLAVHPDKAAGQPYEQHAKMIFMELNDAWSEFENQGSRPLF"}
{"data": "Sample 1", "target": "Calcium/calmodulin-dependent protein kinase type II subunit alpha (CAMK2A, Homo sapiens, UniProt Q9UQM7)", "observed": "enzyme activity", "action": "inhibitor", "tested at": "10 µM", "chain of UniProt Q9UQM7 (whole entry, looked up)": "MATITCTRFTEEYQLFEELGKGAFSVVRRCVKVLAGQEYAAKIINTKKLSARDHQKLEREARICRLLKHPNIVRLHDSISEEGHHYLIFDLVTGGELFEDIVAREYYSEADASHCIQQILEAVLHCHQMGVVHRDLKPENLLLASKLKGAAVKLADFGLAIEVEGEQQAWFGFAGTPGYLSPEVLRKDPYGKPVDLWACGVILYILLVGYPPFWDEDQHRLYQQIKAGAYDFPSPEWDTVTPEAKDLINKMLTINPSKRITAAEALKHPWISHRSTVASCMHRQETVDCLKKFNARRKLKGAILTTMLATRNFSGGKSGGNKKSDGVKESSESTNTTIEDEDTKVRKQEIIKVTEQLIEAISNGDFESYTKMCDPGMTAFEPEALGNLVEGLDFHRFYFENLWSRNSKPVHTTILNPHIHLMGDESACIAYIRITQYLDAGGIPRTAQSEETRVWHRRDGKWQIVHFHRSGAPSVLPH"}
{"Structure (SMILES)": "NC(=O)N1c2ccccc2C[C@H](O)c2ccccc21", "inhibition": "6%"}
{"Structure (SMILES)": "c1ccc2c(c1)CCO2", "inhibition": "-8%"}
{"Structure (SMILES)": "CN1c2ccccc2C(=O)N2CCc3c([nH]c4ccccc34)C21 (racemic)", "inhibition": "12%"}
{"Structure (SMILES)": "Cc1cn([C@H]2C[C@H](O)[C@@H](COP(=O)(O)O)O2)c(=O)[nH]c1=O", "inhibition": "14%"}
{"Structure (SMILES)": "COc1cc(O)c2c(=O)cc(-c3ccc(O)cc3)oc2c1", "inhibition": "6%"}
{"Structure (SMILES)": "COc1ccc(-c2cc(=O)c3c(O)cc(O[C@@H]4O[C@H](CO)[C@@H](O)[C@H](O)[C@H]4O)cc3o2)cc1", "inhibition": "-1%"}
{"Structure (SMILES)": "O=C(O[C@H]1[C@H](Oc2c(-c3ccc(O)c(O)c3)oc3cc(O)cc(O)c3c2=O)O[C@H](CO)[C@H](O)[C@@H]1O)c1cc(O)c(O)c(O)c1", "inhibition": "-63%"}
{"Structure (SMILES)": "COc1ccc2[nH]cc(CCO)c2c1", "inhibition": "27%"}
{"Structure (SMILES)": "CCOc1cc([C@@H](CS(C)(=O)=O)N2C(=O)c3cccc(NC(C)=O)c3C2=O)ccc1OC", "inhibition": "8%"}
{"Structure (SMILES)": "C=CCc1ccc(OC)c(OC)c1", "inhibition": "-9%"}
{"Structure (SMILES)": "O=C(O)[C@@H](O)[C@@H](O)[C@H](O)[C@@H](O)C(=O)O", "inhibition": "4%"}
{"Structure (SMILES)": "CC(/C=C/C=C(\\C)C(=O)O)=C\\C=C\\C=C(C)\\C=C\\C=C(/C)C(=O)O", "inhibition": "7%"}
{"Structure (SMILES)": "CC(C)(Oc1ccc(CCNC(=O)c2ccc(Cl)cc2)cc1)C(=O)O", "inhibition": "3%"}
{"Structure (SMILES)": "COc1cc2nc(N3CCN(C(=O)[C@H]4CCCO4)CC3)nc(N)c2cc1OC", "inhibition": "-3%"}
{"Structure (SMILES)": "C/C=C(/C)C(=O)O[C@H]1[C@H](OC(C)=O)[C@@]2(CO)C(CC1(C)C)C1=CCC3[C@@]4(C)CC[C@H](O[C@@H]5O[C@H](C(=O)O)[C@@H](O[C@@H]6O[C@H](CO)[C@@H](O)[C@H](O)[C@H]6O)[C@H](O)[C@H]5O[C@@H]5O[C@H](CO)[C@@H](O)[C@H](O)[C@H]5O)[C@](C)(CO)C4CC[C@@]3(C)[C@]1(C)C[C@H]2O (stereo partly shown)", "inhibition": "-32%"}
{"data": "Sample 2", "target": "Dual serine/threonine and tyrosine protein kinase (DSTYK, Homo sapiens, UniProt Q6XUX3)", "observed": "enzyme activity", "action": "inhibitor", "tested at": "0.5 µM", "baseline": "control", "chain of UniProt Q6XUX3 (whole entry, looked up)": "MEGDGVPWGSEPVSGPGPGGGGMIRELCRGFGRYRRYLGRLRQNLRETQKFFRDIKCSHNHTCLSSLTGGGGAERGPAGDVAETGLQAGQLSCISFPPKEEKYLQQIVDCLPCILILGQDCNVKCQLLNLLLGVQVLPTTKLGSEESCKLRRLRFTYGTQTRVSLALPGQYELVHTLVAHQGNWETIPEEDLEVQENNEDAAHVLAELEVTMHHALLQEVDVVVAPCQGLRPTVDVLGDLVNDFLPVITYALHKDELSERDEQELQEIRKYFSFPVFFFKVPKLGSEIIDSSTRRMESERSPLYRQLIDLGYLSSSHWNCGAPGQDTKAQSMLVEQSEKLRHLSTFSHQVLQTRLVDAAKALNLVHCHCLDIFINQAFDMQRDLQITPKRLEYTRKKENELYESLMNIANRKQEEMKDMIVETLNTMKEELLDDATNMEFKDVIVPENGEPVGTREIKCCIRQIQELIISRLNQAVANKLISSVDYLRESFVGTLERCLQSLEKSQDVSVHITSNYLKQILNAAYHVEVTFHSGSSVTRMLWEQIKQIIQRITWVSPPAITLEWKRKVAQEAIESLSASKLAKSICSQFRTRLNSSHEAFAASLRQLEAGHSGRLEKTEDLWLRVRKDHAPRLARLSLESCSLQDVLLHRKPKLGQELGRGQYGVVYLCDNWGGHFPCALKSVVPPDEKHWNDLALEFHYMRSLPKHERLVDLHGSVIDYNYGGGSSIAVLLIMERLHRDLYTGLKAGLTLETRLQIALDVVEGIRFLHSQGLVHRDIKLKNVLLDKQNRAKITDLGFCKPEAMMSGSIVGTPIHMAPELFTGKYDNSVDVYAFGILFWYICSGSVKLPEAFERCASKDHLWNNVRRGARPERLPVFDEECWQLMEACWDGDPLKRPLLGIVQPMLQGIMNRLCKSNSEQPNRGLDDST"}
{"SMILES": "Nc1ncnc2c1cnn2-c1ccccc1", "remaining activity [%]": 94.5}
{"SMILES": "Fc1ccc(-c2nc3n(c2-c2ccncc2)CCS3)cc1", "remaining activity [%]": 105}
{"SMILES": "O=C1NC(=O)C(c2c[nH]c3ccccc23)=C1c1c[nH]c2ccccc12", "remaining activity [%]": 99.6}
{"SMILES": "Nc1nccc(-c2c(-c3ccc(F)cc3)ncn2C2CCNCC2)n1", "remaining activity [%]": 102}
{"SMILES": "CCc1[nH]c(-c2ccc(OC)cc2)nc1-c1ccncc1", "remaining activity [%]": 99.6}
{"SMILES": "Cc1cc(Nc2nc(-c3ccccc3)nc3ccccc23)n[nH]1", "remaining activity [%]": 86}
{"SMILES": "Cc1cncc2cccc(S(=O)(=O)N3CCCN(C(=O)CN)C[C@@H]3C)c12", "remaining activity [%]": 105}
{"SMILES": "CSc1nc(-c2ccnc(N[C@@H](C)c3ccccc3)c2)c(-c2ccc(F)cc2)[nH]1 (racemic)", "remaining activity [%]": 102}
{"SMILES": "CC(=O)c1ccc(N2CCOCC2)cc1O", "remaining activity [%]": 95.3}
{"SMILES": "COc1cc(Nc2c(C#N)cnc3cc(OCCCN4CCN(C)CC4)c(OC)cc23)c(Cl)cc1Cl", "remaining activity [%]": 104}
{"SMILES": "CC(C)(C)n1nc(Cc2cccc3ccccc23)c2c(N)ncnc21", "remaining activity [%]": 91.4}
{"SMILES": "O=C1Cc2c([nH]c3ccc([N+](=O)[O-])cc23)-c2ccccc2N1", "remaining activity [%]": 90}
{"SMILES": "Nc1nc(Nc2ccc(S(N)(=O)=O)cc2)nn1C(=O)c1c(F)cccc1F", "remaining activity [%]": 86.2}
{"SMILES": "COc1ccc(S(=O)(=O)N(CCO)c2ccccc2CN(C)CC=Cc2ccc(Cl)cc2)cc1", "remaining activity [%]": 93.5}
{"SMILES": "Cc1ccc(NC2=CC(=O)c3sc(C)nc3C2=O)cc1", "remaining activity [%]": 76.1}
{"SMILES": "O=S(=O)(NCCNC/C=C/c1ccc(Br)cc1)c1cccc2cnccc12", "remaining activity [%]": 91.6}
{"SMILES": "CCCC(=O)Oc1ccc2[nH]c(C(=O)c3cc4ccccc4[nH]3)cc2c1", "remaining activity [%]": 94.9}
{"SMILES": "N#CC(=C(N)Sc1ccc(N)cc1)c1ccccc1C(F)(F)F", "remaining activity [%]": 113}
{"SMILES": "NC(=O)c1ccc(N(C(N)=O)c2c(F)cccc2F)nc1-c1ccc(F)cc1F", "remaining activity [%]": 101}
{"SMILES": "CC[n+]1c(/C=C/N(C)c2ccccc2)n(-c2ccccc2)c2ccc(-c3nc4ccccc4s3)cc21", "remaining activity [%]": 103}
{"SMILES": "CC#CC(=O)Nc1cc2c(Nc3ccc(F)c(Cl)c3)ncnc2cn1", "remaining activity [%]": 91.1}
{"SMILES": "Oc1ccc(Nc2nc(-c3ccc(Cl)cc3)cs2)cc1", "remaining activity [%]": 104}
{"data": "Sample 3", "Structure (SMILES)": "CC(=O)c1c(NS(C)(=O)=O)c2cc(-c3ccc(Cl)cc3)c(-c3ccc(Cl)cc3Cl)nc2n(C)c1=O", "observed": "cell-free assay", "method": "competition with immobilised ligand", "tested at": "1 µM"}
{"target": "Tyrosine-protein kinase Blk (BLK, Homo sapiens, UniProt P51451)", "remaining binding": "100%"}
{"target": "Tyrosine-protein kinase JAK3, JH1 (JAK3, Homo sapiens, UniProt P52333)", "remaining binding": "100%"}
{"target": "Ephrin type-A receptor 1 (EPHA1, Homo sapiens, UniProt P21709)", "remaining binding": "100%"}
{"target": "STE20/SPS1-related proline-alanine-rich protein kinase (STK39, Homo sapiens, UniProt Q9UEW8)", "remaining binding": "92%"}
{"target": "Serine/threonine-protein kinase Nek4 (NEK4, Homo sapiens, UniProt P51957)", "remaining binding": "100%"}
{"target": "Tyrosine-protein kinase ABL1, phosphorylated (ABL1, Homo sapiens, UniProt P00519, Y253F)", "remaining binding": "94%"}
{"target": "Epidermal growth factor receptor (EGFR, Homo sapiens, UniProt P00533, del747-752/P753S)", "remaining binding": "90%"}
{"target": "Vascular endothelial growth factor receptor 1 (FLT1, Homo sapiens, UniProt P17948)", "remaining binding": "100%"}
{"target": "Calcium/calmodulin-dependent protein kinase kinase 2 (CAMKK2, Homo sapiens, UniProt Q96RR4)", "remaining binding": "100%"}
{"target": "Homeodomain-interacting protein kinase 3 (HIPK3, Homo sapiens, UniProt Q9H422)", "remaining binding": "88%"}
{"target": "Epidermal growth factor receptor (EGFR, Homo sapiens, UniProt P00533, L858R/T790M)", "remaining binding": "89%"}
{"target": "Receptor-type tyrosine-protein kinase FLT3 (FLT3, Homo sapiens, UniProt P36888, D835Y)", "remaining binding": "95%"}
{"target": "Discoidin domain-containing receptor 2 (DDR2, Homo sapiens, UniProt Q16832)", "remaining binding": "96%"}
{"target": "Dual specificity mitogen-activated protein kinase kinase 6 (MAP2K6, Homo sapiens, UniProt P52564)", "remaining binding": "100%"}
{"target": "MAP kinase-interacting serine/threonine-protein kinase 1 (MKNK1, Homo sapiens, UniProt Q9BUB5)", "remaining binding": "100%"}
{"target": "Mast/stem cell growth factor receptor Kit (KIT, Homo sapiens, UniProt P10721, D816H)", "remaining binding": "70%"}
{"target": "Cyclin-G-associated kinase (GAK, Homo sapiens, UniProt O14976)", "remaining binding": "100%"}
{"target": "Calcium/calmodulin-dependent protein kinase type II subunit delta (CAMK2D, Homo sapiens, UniProt Q13557)", "remaining binding": "100%"}
{"target": "Receptor-type tyrosine-protein kinase FLT3 (FLT3, Homo sapiens, UniProt P36888)", "remaining binding": "92%"}
{"target": "Serine/threonine-protein kinase Nek7 (NEK7, Homo sapiens, UniProt Q8TDX7)", "remaining binding": "100%"}
{"target": "Tyrosine-protein kinase ABL1, phosphorylated (ABL1, Homo sapiens, UniProt P00519)", "remaining binding": "92%"}
{"target": "Vascular endothelial growth factor receptor 2 (KDR, Homo sapiens, UniProt P35968)", "remaining binding": "82%"}
{"target": "Platelet-derived growth factor receptor beta (PDGFRB, Homo sapiens, UniProt P09619)", "remaining binding": "95%"}
{"target": "Serine/threonine-protein kinase 38-like (STK38L, Homo sapiens, UniProt Q9Y2H1)", "remaining binding": "76%"}
{"target": "Leukocyte tyrosine kinase receptor (LTK, Homo sapiens, UniProt P29376)", "remaining binding": "100%"}
{"data": "Sample 4", "species": "C57BL/6 IFN-γ knockout mouse female", "medium": "plasma", "route": "oral", "dose": "10 mg/kg"}
{"Compound": "CN(C(=O)c1ccn2ncc(-c3ccc(C(N)=O)cc3)c2c1)c1ccc(C#N)cn1", "Cmax": "618 nM and 800 nM and 560 nM"}
{"Compound": "CNC(=O)c1ccc(-c2cnn3ccc(C(=O)N(CC(=O)O)c4ccc(Cl)cc4)cc23)cc1", "Cmax": "85 nM and 53 nM and 11 nM"}
{"Compound": "CCOC(=O)CN(C(=O)c1ccn2ncc(-c3ccc(C(=O)NC)cc3)c2c1)c1ccc(Cl)cc1", "Cmax": "336 nM and 301 nM and 242 nM"}
{"Compound": "COC(=O)c1cc(Cl)ccc1N(C)C(=O)c1ccn2ncc(-c3ccc(C(N)=O)cc3)c2c1", "Cmax": "24 nM and 44 nM and 30 nM"}
{"Compound": "CNC(=O)c1ccc(-c2cnn3ccc(C(=O)N(C[C@H]4CCC(=O)O4)c4ccc(OC(F)(F)F)cc4)cc23)cc1", "Cmax": "18 nM and 31 nM and 46 nM"}
{"note": "A few entries again (sample 3):"}
{"target": "Serine/threonine-protein kinase Nek4 (NEK4, Homo sapiens, UniProt P51957)", "remaining binding": "100%"}
{"target": "Epidermal growth factor receptor (EGFR, Homo sapiens, UniProt P00533, del747-752/P753S)", "remaining binding": "90%"}
{"target": "Serine/threonine-protein kinase Nek7 (NEK7, Homo sapiens, UniProt Q8TDX7)", "remaining binding": "100%"}
{"target": "Epidermal growth factor receptor (EGFR, Homo sapiens, UniProt P00533, L858R/T790M)", "remaining binding": "89%"}
{"target": "Mast/stem cell growth factor receptor Kit (KIT, Homo sapiens, UniProt P10721, D816H)", "remaining binding": "70%"}
{"target": "Leukocyte tyrosine kinase receptor (LTK, Homo sapiens, UniProt P29376)", "remaining binding": "100%"}
{"target": "Calcium/calmodulin-dependent protein kinase type II subunit delta (CAMK2D, Homo sapiens, UniProt Q13557)", "remaining binding": "100%"}
{"target": "Platelet-derived growth factor receptor beta (PDGFRB, Homo sapiens, UniProt P09619)", "remaining binding": "95%"}
